Measured values from different studies.
Numbered parts are unrelated; each lists some results of a single study.

Block 1
Target: RNA binding protein fox-1 homolog 2, RRM domain, GST-SBP tag (RBFOX2, Homo sapiens, UniProt O43251-10, residues 100-194)
Method: RNA Bind-n-Seq
Molecule type: RNA
Matrix: in vitro
Tested at: 365 nM
Notes: natural RNA segment, single round, ends assumed
Relative to: no-protein control
Reading: higher = stronger binding
Under “RBNS enrichment (R)”, `GGGAGUUCUACAGUCCGACGAUCCAUGGUACCAGCCCAGAGUCGGGCCGGGUCCUUGGUAUAGGACAUGAGGAAAUGUUGUGUUCAGAAAUGAAUAAAUGGAAUGCCCUCAUACAAGGGGGAGGGUGGGGUGGUGGAAUUCUCGGGUGCCAA` is recorded as 0.778.
For `GGGAGUUCUACAGUCCGACGAUCUUCUACAUUUUAAAAGGAAGAAAAAAAAGCAAAUAACUGAAUUAUUAUAGAAAACUUUAGACCUGUGACAUUUUUUUGUUUUAAAUUACAAAAGAGGUUGGUAUGAUAAAUGGAAUUCUCGGGUGCCAA`, “RBNS enrichment (R)” read 0.724.
`GGGAGUUCUACAGUCCGACGAUCCAAGAGUGCAGGAGUGGACUCUCCACUGAUGGGUCUCCCUCCCCAUCCUGGUUUCCACCCCGGGCUGGCUAGCUCUGUUGGUUUGAAGACUGACAGCCAGCCUGGCUCAUUGGAAUUCUCGGGUGCCAA` — result for “RBNS enrichment (R)”: 0.641.
Under “RBNS enrichment (R)”, `GGGAGUUCUACAGUCCGACGAUCAUGUUCCUUGUGGGAGACUUUGGCGAGGGUCUGUGGGUAAAAGCACCAGGGGGUUAAUCUUGGCUCAGUUUCCUAAAAAGCAUUGAUUAAUUUAACUGGCUUUUAAAUAUUGGAAUUCUCGGGUGCCAA` is recorded as 0.891.

Block 2
Target: Histone acetyltransferase KAT6A, winged helix 1, GST fusion (KAT6A, Homo sapiens, UniProt Q92794, residues 1-85)
Method: protein binding microarray
Molecule type: double-stranded DNA, one strand shown
Matrix: in vitro
Tested at: not given
Notes: 8-mer, flanks averaged, mean of 2 arrays, mostly near background
Relative to: not given
Reading: higher = stronger binding
Construct (chain): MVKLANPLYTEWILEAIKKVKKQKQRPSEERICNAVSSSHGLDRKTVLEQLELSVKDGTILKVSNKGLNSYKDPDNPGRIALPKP
For `CCGCACAG`, the E-score was 0.218.
The E-score of `ACGCTCGC` is reported as 0.141.
For `ACAATCTA`, the E-score was -0.103.

Block 3
Target: Centromere-binding protein 1, full length, His-tagged (CBF1, Saccharomyces cerevisiae, UniProt P17106, residues 1-351)
Sequence of UniProt P17106 (whole entry, looked up): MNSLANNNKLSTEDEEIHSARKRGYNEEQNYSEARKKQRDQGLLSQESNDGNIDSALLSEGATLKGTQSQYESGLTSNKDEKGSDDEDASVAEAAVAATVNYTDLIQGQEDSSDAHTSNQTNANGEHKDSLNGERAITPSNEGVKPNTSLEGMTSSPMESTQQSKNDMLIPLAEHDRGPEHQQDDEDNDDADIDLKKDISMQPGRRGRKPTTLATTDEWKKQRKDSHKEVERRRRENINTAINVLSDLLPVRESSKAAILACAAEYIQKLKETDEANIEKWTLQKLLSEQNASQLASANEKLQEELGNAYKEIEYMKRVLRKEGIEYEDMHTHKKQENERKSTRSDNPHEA
Method: competition protein-binding microarray
Molecule type: double-stranded DNA, one strand shown
Matrix: in vitro
Tested at: 2 µM
Notes: whole 60-bp probe, lowest competitor level
Together with: Pho4 competitor, 0.05 µM
Reading: higher = stronger binding
For `GAAGTCCTTATTCCGCACGTTGCTACCGCCGGCTTGGTCTTGATTCGCTTGACGCTGCTG`, the fluorescence intensity was 84.3 a.u.
`AATCGTTGGCACCATCACGGGATTTTGACGAGGGGAGTCTTGATTCGCTTGACGCTGCTG` has a fluorescence intensity of 315 a.u.
The fluorescence intensity of `CGTCCTAGTGATTGTCGGGTGGGTGCCATGAGGAAGGTCTTGATTCGCTTGACGCTGCTG` is reported as 79.8 a.u.
The fluorescence intensity of `GTCTTGTCTCATTGCGCGGTGGGTGTCCCCACTTCAGTCTTGATTCGCTTGACGCTGCTG` is reported as 81.3 a.u.

Further values, each from its own experiment
With `PhoQ, residues 284 288 289 292 302 303 SSTLSG` the fold induction was 7.36 (PhoP, residues 12 14 15 18 19 SGWQI (Escherichia coli, UniProt P23836); Sort-seq, measured: YFP reporter; E. coli; PhoQ-PhoP variant library, together with: 10 µM Mg2+; relative to: high Mg2+ state, higher = stronger signaling).

Excerpt of the above (block 1):
Under “RBNS enrichment (R)”, `GGGAGUUCUACAGUCCGACGAUCCAUGGUACCAGCCCAGAGUCGGGCCGGGUCCUUGGUAUAGGACAUGAGGAAAUGUUGUGUUCAGAAAUGAAUAAAUGGAAUGCCCUCAUACAAGGGGGAGGGUGGGGUGGUGGAAUUCUCGGGUGCCAA` is recorded as 0.778.
For `GGGAGUUCUACAGUCCGACGAUCUUCUACAUUUUAAAAGGAAGAAAAAAAAGCAAAUAACUGAAUUAUUAUAGAAAACUUUAGACCUGUGACAUUUUUUUGUUUUAAAUUACAAAAGAGGUUGGUAUGAUAAAUGGAAUUCUCGGGUGCCAA`, “RBNS enrichment (R)” read 0.724.
